Published values pooled from the literature.
Each numbered part is a random draw from the data of one study; scales do not carry over between parts. Changes are numbered by the printed parent chain.

Study 1
Target: RNA binding protein fox-1 homolog 2, RRM domain, GST-SBP tag (RBFOX2, Homo sapiens, UniProt O43251-10, residues 100-194)
Technique: RNA Bind-n-Seq
Form: RNA
Sample: in vitro
Concentration: 365 nM
Notes: natural RNA segment, single round, ends assumed
Reference: no-protein control
Direction: higher = stronger binding
Endpoint: RBNS enrichment (R)
Constant ends, left off below: GGGAGUUCUACAGUCCGACGAUC … UGGAAUUCUCGGGUGCCAA
Residues (chain): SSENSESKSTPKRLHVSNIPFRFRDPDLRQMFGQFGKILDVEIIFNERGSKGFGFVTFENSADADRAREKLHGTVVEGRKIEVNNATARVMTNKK
CCUAGUUUUGUAUUUUGUCCUGUGACUGCCAUGCGUUCCACCAGAAAGCCGCUCUAUUUUGGUCUCUGUGAUAUUUUAAAUGCGUGACAGAAGCAAGCAAAUAAAGUCAG: 0.491
AAAUUGACUAGAUAUCUGAGACAACAUGGAACUUCGGAUCAGUUUCUCUUUCAUGAGGGUGGAACUUGCACAGAAAAGAAGAAUAAUCGCAAGAAGAGAUUUGGGCUUAA: 1.21
CCCCCCGGCAGCUUGACACUGAAUCCAGUGUCAAUUUGGGGAGAAAGCAGUUUUGUCUUGGAAUUUUGUAUGUUGUAGGAAUCCUUAGAGAGUGUGGUUCCUUCUGAUGG: 1.59
UUUGCUACAGGAGUGUAGAGACAGACAGCCCCAAGAGCUGUCAGCAUUGGAAGCCAGACUUGAUUCUGAGACAUGUUGAAUUGCUUUUUCCUCUCCCAUCAAAUGGCAUU: 0.354
CACUUGGUUUGGGGGUUCAGGCUCCAGGAUCAAUUUAGAGGGAUCCUUGAACCCAGCCCCGUGAACAAUCUAUCAUAGGACUUUCAGGUAUUUUUACUUUUAUUUUUUGA: 0.364
UCCAACCAAUCAGUGCUGUCAACGGGCUGCCAUAGCUCCUUCGAUGGCAAAUAGGAUGUGUGCCCAAAGAAUUAAAGCGAUGAGUGGCUGGUGAAGCGCUCUCUGUCCUG: 0.487
CCCUUCACAUCAAGCUGGCCUUGCCCUCUCCCGGGACAGUGCCUGUUAACCUUCAUGUGACAAAACAAGGAUAUAUUCUUGCUGCUACGACAUGCUUUUGACUCAGUAUG: 0.288
CUCUAGCCCCGCUCUCUUCCCCUCUUUCUGUCCCCCAUUUUCCAGGGGGUAUAUGGUCAGGGCUCCCCAACCUGAGUUGGGUUACUUCAAGGGCAGCCAGCAGGCCUGGA: 0.365
AAGUUGAGAUUCACUGAUUACAGUCAGGUGGAUCCAUAUGUGUAGCCUCCUUUCGCAGCCAGCCUGGGAUAGAGUUACUGACAUUUGAGGGCUGGCCAUCUUUCACCAUG: 0.257
GCUUUUGGUAUUUUCAUGUGUUACCUGCAUGUGAAUUUCUCAUGACUUUGUUUUUCUAGUUUCUUUUUUUUUUCUAAGAAGAGACUUGGAACGAGUCUGAUUCAUGGUGU: 0.343
GUUUAUUUUGUUUGGGUAAUUUGGUUCAUUAAGUACAUAGCUAAGGUAAUGAACAUCUUUUUCAGUAAUUGUAAAGUGAUUUAUUCAGAAUAAAUUUUUUGUGCUUAUGA: 0.621
UAGGAUUUCCUCUUUUCCAGGCACAUUGUAAACUGUGUCUACAGUUUAUCCAUAUAACUUCUCUUCUGAAAACUGAGGAGUGUCCUCUGUUCUUCCAGUUCACGAGGGCA: 0.231

Study 2
Target: ABI1, truncated, D143A, DHFR fusion (Arabidopsis thaliana)
Technique: DHFR PCA, deep sequencing
Sample: yeast
Notes: methotrexate growth selection, single substitutions
With: (+)-ABA 58 µM
Reference: wild-type fitted maximum
Direction: higher = stronger binding
Endpoint: relative binding score
Starting sequence: PYL1, truncated, DHFR fusion (Arabidopsis thaliana); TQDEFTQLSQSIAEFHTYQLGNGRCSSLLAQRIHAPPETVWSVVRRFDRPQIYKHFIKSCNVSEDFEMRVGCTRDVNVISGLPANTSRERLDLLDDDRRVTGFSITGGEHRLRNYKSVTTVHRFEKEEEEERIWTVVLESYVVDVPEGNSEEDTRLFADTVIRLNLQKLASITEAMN
T173P: -7.02%
T119Y: -3.12%
R49M: 77.5%
I79R: 68.3%
R69Y: 72.1%
R46S: 75.2%
V44Q: 11.8%
Y141L: 5.24%
T119G: -11.7%
W41V: -8.81%
T160N: 69.1%
C60Q: -6.46%
I105Q: -4.25%
V137M: 21.2%
Q19Y: 82.6%
T160Q: 60.1%

Study 3
Target: TAR DNA-binding protein 43, full length, His tag (TARDBP, Homo sapiens, UniProt Q13148, residues 1-414)
Technique: RNA Bind-n-Seq
Form: RNA
Sample: in vitro
Concentration: 20 nM
Notes: 6-mer, flanks averaged, single round
With: 150 mM LiCl
Reference: input library
Direction: higher = stronger binding
Endpoint: 6-mer enrichment (R)
CGAAUC: 0.811
AAAGGU: 0.93
UCGUUU: 1.02
UUUCGU: 1.04
GGUCUC: 0.879
GGCGCC: 1.02
UACGCG: 0.905
AUUUAC: 0.973
CCUCUG: 0.928
GAAUCC: 0.836
AUUUAG: 1
ACUGUU: 0.992
CCCUGG: 1.03
UUAGGU: 1.04
UCCAAC: 0.817
UUCUAG: 0.876
ACCGGC: 0.882
GCAAAG: 0.91
CGAGCA: 0.875
CGGCAG: 0.975
AUUGGG: 1.15
CUCCGG: 0.885
CGUUUA: 0.977
CAACCG: 0.79
ACAGAA: 0.833

Study 4
Target: CCNE2, cyclin fold, Cln2 fusion (human)
Technique: yeast growth competition, sequencing
Sample: yeast
Notes: strong parent motif
Reference: not given
Direction: higher = stronger binding
Endpoint: normalised enrichment score
Starting sequence: PLK5 docking peptide (human); IFRKVGQRLLTQC
G6A: 0.686
R3A: 1.15
Q12A: 0.967
K4A: 0.851
L9A: 0.477
I1A: 1.02

Study 5
Target: Interferon regulatory factor 5, full length, phosphomimetic (IRF5, Homo sapiens, UniProt Q13568-2, residues 1-514, K96S/S451D/S453D/S456D/S462D)
Technique: protein-binding microarray
Form: double-stranded DNA, one strand shown
Sample: in vitro
Concentration: 250 nM
Notes: 60-bp whole probe
With: salmon DNA 0.4 mg/ml
Reference: random background probes
Direction: higher = stronger binding
Endpoint: log fluorescence
Constant ends, left off below: GCCTAGCAC … GTCTTGATTCGCTTGACGCTGCTG
TTAAATATCGGGTTTCGATTAGTGCTA: 8.16 z-score
GTCTTTGCAAAAGCTCCACCGTGCTAG: -0.293 z-score
TTAGGGTTCCTTATCCTTTAGTGCTAG: -0.33 z-score
TACTTTCTATCTCTGTTTTTGTGCTAG: 7.4 z-score
TTAGGACTGGGTCTTGGTTAGTGCTAG: -0.381 z-score
GACGAACTGAGGACTGGAGACGTGCTA: -0.581 z-score
CCTCACTTCCTTCTGCCTGTGTGCTAG: 0.296 z-score
TCAAGTTTCACTGCTGCACTGTGCTAG: 4.06 z-score
GACGAACTGGGATTTCGAGACGTGCTA: 0.0187 z-score
GACGGACTGTTTCTCCTGACGTGCTAG: 0.819 z-score
TCAACTCGCCTTTTTTGACTGTGCTAG: 0.207 z-score
ATAGGTTTCCTTTTCCTTTAGTGCTAG: 1.55 z-score
GACCATTTCGGGACTGGAGACGTGCTA: 1.24 z-score
TCAAGTTTTCTTTTCCAACTGTGCTAG: 1.21 z-score
TTAGGACTAGGGACTGGGTTAGTGCTA: -0.791 z-score
TCATTTATGCTTTCTTTAACTGTGCTA: 1.84 z-score
CACATCTGCTGTGGGAGCACGTGCTAG: -0.361 z-score
GGCCCTGTCCTTTTCTTTACGTGCTAG: -0.231 z-score
ACTCTTCTTTTTTTTCTTTAGTGCTAG: 1.39 z-score
TTAGGTCTCTTTTTCCTTTAGTGCTAG: 0.543 z-score
GCTGACACTAACACAGTGGTGTGCTAG: -0.446 z-score
TGTAGTGTGTGTCTGATTATGTGCTAG: 0.0818 z-score

Study 6
Target: Histone acetyltransferase KAT6A, winged helix 2, GST fusion (KAT6A, Homo sapiens, UniProt Q92794, residues 85-181)
Technique: protein binding microarray
Form: double-stranded DNA, one strand shown
Sample: in vitro
Concentration: not given
Notes: 8-mer, flanks averaged, mean of 2 arrays, mostly near background
Reference: not given
Direction: higher = stronger binding
Endpoint: E-score
Construct (chain): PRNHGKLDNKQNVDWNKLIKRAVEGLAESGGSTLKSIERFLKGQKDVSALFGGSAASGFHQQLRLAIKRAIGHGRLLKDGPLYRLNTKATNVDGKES
GGTCTGCA: 0.0911
GGGTGGGA: -0.0804
CACTTCTC: -0.106
ACGGTGGC: -0.0503
GTGCTCTA: 0.121
AGGAAGAG: 0.0132
CTCCTTTC: -0.0401
AGTACCAA: 0.0768
CAGGCTCA: 0.124
CTTCAGCC: 0.0112
AGCGTCTA: -0.117
CCCCTCGG: 0.293
GAAGGAAA: 0.107
CTCCACAG: -0.0266
CGTACTAC: -0.17
AGACGGGG: 0.0744
AACAGCAC: 0.139
CCGTTAGA: 0.0217
AAGATTAA: 0.237
GAATAGGA: -0.0668
ACGGGGTA: -0.132
ATTAACCG: 0.174
CAGTAGTC: -0.261
AATGGTAT: -0.0895

A few entries again (study 1):
CUCUAGCCCCGCUCUCUUCCCCUCUUUCUGUCCCCCAUUUUCCAGGGGGUAUAUGGUCAGGGCUCCCCAACCUGAGUUGGGUUACUUCAAGGGCAGCCAGCAGGCCUGGA: 0.365
UUUGCUACAGGAGUGUAGAGACAGACAGCCCCAAGAGCUGUCAGCAUUGGAAGCCAGACUUGAUUCUGAGACAUGUUGAAUUGCUUUUUCCUCUCCCAUCAAAUGGCAUU: 0.354
GUUUAUUUUGUUUGGGUAAUUUGGUUCAUUAAGUACAUAGCUAAGGUAAUGAACAUCUUUUUCAGUAAUUGUAAAGUGAUUUAUUCAGAAUAAAUUUUUUGUGCUUAUGA: 0.621
CCCCCCGGCAGCUUGACACUGAAUCCAGUGUCAAUUUGGGGAGAAAGCAGUUUUGUCUUGGAAUUUUGUAUGUUGUAGGAAUCCUUAGAGAGUGUGGUUCCUUCUGAUGG: 1.59
UAGGAUUUCCUCUUUUCCAGGCACAUUGUAAACUGUGUCUACAGUUUAUCCAUAUAACUUCUCUUCUGAAAACUGAGGAGUGUCCUCUGUUCUUCCAGUUCACGAGGGCA: 0.231
AAAUUGACUAGAUAUCUGAGACAACAUGGAACUUCGGAUCAGUUUCUCUUUCAUGAGGGUGGAACUUGCACAGAAAAGAAGAAUAAUCGCAAGAAGAGAUUUGGGCUUAA: 1.21
